Assay results of several laboratories.
Parts stem from different laboratories: compare values within a part only.

Sample 1 — technique: aptamer microarray, sandwich; form: DNA with 2'F-ANA; sample: in vitro; concentration: 200 nM; added: Cy3 exosite-II aptamer, 400 nM; direction: higher = stronger binding; strand: GGTTGGTGTGGTTGG
Target: Prothrombin, mature alpha-thrombin (F2, Homo sapiens, UniProt P00734)
Notes: whole 15-mer aptamer, many near background
`2'F-ANA at 1 3 4 5 7 8 9 10 11 12 13 15` — result for “mean fluorescence intensity”: 52.7 a.u.
Under “mean fluorescence intensity”, `2'F-ANA at 2 6 7 8 11 14` is recorded as 138 a.u.
`2'F-ANA at 1 2 7 11 14 15`: “mean fluorescence intensity” 53.1 a.u.
For `2'F-ANA at 4 7 8 11 12 14`, “mean fluorescence intensity” read 208 a.u.
`2'F-ANA at 3 5 6 9 11 12 13 15`: “mean fluorescence intensity” 127 a.u.
`2'F-ANA at 1 3 4 7 8 9 10 12 15` — result for “mean fluorescence intensity”: 87.7 a.u.

Sample 2 — technique: protein binding microarray; form: double-stranded DNA, one strand shown; sample: in vitro; concentration: not given; baseline: not given; direction: higher = stronger binding
Target: Histone acetyltransferase KAT6A, both winged helices, GST fusion (KAT6A, Homo sapiens, UniProt Q92794, residues 1-181)
Notes: 8-mer, flanks averaged, mean of 2 arrays, mostly near background
Construct (chain): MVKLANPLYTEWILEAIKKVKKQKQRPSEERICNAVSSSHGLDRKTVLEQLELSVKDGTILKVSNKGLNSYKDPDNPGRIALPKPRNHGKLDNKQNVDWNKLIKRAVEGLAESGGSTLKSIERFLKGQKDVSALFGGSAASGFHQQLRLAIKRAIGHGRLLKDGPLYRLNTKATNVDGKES
With `GTTCTCAA` the E-score was -0.0821.
The E-score of `AGAGAGCC` is reported as -0.117.
For `CTACTAAC`, the E-score was -0.13.
`GCCCGACA` has an E-score of 0.131.
With `CCCGGCGG` the E-score was 0.306.

Sample 3 — technique: RNA Bind-n-Seq; form: RNA; sample: in vitro; concentration: 365 nM; baseline: no-protein control; direction: higher = stronger binding
Target: RNA binding protein fox-1 homolog 2, RRM domain, GST-SBP tag (RBFOX2, Homo sapiens, UniProt O43251-10, residues 100-194)
Notes: natural RNA segment, single round, ends assumed
Residues (chain): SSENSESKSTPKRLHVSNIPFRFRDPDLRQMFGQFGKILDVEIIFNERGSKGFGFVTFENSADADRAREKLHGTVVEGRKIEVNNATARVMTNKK
For `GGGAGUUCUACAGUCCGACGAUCAACAUAGAUAGUGCUAGUAAUAUUACUUAUAACUGUAAUAUAUAGAUUCAGAAAUACAUUUUCAUUAUCCAAAAUCAGCUUCAACAAAUGGUUUCUGGAGACAAAUAAUUUGGAAUUCUCGGGUGCCAA`, “RBNS enrichment (R)” read 0.556.
`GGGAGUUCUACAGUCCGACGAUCCUAGAUUUAGAUGCUCAAGAAUAAAUGUACUGAGAAGAGUUAAUAAUUGUUUAUUCCCAAAUUGAAAUACACAAGAAAAUAUAAUUUAAGUCUGAAAUUUAACGCCUACUUGGAAUUCUCGGGUGCCAA` — result for “RBNS enrichment (R)”: 0.333.
`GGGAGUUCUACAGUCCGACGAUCUGAAAACCAAUCAAUUACUAGAUGAGUGGAUGGAUGCAGAAAAAUCUGGGCUGAGCCAAAGUCCCUUUUGGAAAUACAAGCCAUAACAUUCGAAGGACAUCAGCGACCUUUGGAAUUCUCGGGUGCCAA` — result for “RBNS enrichment (R)”: 0.228.
Under “RBNS enrichment (R)”, `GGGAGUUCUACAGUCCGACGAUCUAUAGAUUUAGCUAUUUAUUGUUCGAUGCCUGCAUGCUGAAACAAUGCCUACAGCUGUCUUCACAUGUAUGGACGUGUGUGAAUGGUUGUACGUUUUGCACAUUUUGUGGUGGAAUUCUCGGGUGCCAA` is recorded as 1.56.
`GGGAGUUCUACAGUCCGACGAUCGACUAGGGAGAGGCUUAGAUACUUUAGUGUAUUUAAAGAGCAUUUCAGUUAACUUUUUCAGCUAUUUUUAAAGUUUGUGAAUGGAGUGUUAUUUUGGACAUUCUUAAAUAUGGAAUUCUCGGGUGCCAA` — result for “RBNS enrichment (R)”: 0.893.
`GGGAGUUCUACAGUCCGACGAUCGGUUGAGCUUGACAUGGAAAGGAGCAGUUGGCAGGGAAGGAACUUAUUCCCCAAGAGUGGUAACUAACCCACAGCCCUGCUCGGUGUGCCCACCGCUGAGAGGCUGCAGUUGGAAUUCUCGGGUGCCAA`: “RBNS enrichment (R)” 0.864.

Mixed results
The fold induction of `PhoQ, residues 284 288 289 292 302 303 TLASMF` is reported as 19.1 (PhoP, residues 12 14 15 18 19 SEGLL (Escherichia coli, UniProt P23836); Sort-seq, refers to: YFP reporter; E. coli; PhoQ-PhoP variant library, added: 10 µM Mg2+; baseline: high Mg2+ state, higher = stronger signaling).

Excerpt of the above (sample 2):
The E-score of `AGAGAGCC` is reported as -0.117.
For `CTACTAAC`, the E-score was -0.13.
